# Measurements collected from several papers.
# Every numbered part comes from another study and shows a few of its results, in no order. “And” joins repeats or separate records; there may be more than shown.
# Sequence of UniProt P00519 (whole entry, unmodified, looked up): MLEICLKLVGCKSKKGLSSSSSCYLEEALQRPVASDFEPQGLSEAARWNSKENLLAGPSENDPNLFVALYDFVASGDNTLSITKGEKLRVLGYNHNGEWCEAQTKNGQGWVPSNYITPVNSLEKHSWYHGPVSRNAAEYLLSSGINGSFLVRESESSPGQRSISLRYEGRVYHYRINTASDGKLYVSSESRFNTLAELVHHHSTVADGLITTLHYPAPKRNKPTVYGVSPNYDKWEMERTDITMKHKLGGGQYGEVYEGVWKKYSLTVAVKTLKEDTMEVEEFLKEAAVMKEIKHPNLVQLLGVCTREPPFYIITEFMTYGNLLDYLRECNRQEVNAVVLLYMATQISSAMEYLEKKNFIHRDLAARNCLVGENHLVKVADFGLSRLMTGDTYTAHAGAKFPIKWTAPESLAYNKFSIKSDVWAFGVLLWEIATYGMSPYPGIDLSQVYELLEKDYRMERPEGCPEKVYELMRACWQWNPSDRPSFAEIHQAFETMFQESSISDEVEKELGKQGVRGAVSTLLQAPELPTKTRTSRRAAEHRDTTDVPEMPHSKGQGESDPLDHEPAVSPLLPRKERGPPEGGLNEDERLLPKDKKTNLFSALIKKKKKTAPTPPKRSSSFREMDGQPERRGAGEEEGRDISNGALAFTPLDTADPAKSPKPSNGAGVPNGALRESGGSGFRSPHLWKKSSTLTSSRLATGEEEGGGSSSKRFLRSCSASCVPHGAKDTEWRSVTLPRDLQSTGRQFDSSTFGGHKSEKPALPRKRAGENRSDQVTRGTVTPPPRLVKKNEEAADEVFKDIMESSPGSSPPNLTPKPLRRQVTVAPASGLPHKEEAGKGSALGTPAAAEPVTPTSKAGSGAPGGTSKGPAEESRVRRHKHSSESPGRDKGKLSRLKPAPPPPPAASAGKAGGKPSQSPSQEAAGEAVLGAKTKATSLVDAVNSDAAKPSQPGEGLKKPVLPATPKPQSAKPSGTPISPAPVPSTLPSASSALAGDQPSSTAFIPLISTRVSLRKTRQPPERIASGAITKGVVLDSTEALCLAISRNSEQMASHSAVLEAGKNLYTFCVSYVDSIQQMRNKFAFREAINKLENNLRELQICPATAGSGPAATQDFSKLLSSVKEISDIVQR
# Sequence of UniProt P23458 (whole entry, looked up): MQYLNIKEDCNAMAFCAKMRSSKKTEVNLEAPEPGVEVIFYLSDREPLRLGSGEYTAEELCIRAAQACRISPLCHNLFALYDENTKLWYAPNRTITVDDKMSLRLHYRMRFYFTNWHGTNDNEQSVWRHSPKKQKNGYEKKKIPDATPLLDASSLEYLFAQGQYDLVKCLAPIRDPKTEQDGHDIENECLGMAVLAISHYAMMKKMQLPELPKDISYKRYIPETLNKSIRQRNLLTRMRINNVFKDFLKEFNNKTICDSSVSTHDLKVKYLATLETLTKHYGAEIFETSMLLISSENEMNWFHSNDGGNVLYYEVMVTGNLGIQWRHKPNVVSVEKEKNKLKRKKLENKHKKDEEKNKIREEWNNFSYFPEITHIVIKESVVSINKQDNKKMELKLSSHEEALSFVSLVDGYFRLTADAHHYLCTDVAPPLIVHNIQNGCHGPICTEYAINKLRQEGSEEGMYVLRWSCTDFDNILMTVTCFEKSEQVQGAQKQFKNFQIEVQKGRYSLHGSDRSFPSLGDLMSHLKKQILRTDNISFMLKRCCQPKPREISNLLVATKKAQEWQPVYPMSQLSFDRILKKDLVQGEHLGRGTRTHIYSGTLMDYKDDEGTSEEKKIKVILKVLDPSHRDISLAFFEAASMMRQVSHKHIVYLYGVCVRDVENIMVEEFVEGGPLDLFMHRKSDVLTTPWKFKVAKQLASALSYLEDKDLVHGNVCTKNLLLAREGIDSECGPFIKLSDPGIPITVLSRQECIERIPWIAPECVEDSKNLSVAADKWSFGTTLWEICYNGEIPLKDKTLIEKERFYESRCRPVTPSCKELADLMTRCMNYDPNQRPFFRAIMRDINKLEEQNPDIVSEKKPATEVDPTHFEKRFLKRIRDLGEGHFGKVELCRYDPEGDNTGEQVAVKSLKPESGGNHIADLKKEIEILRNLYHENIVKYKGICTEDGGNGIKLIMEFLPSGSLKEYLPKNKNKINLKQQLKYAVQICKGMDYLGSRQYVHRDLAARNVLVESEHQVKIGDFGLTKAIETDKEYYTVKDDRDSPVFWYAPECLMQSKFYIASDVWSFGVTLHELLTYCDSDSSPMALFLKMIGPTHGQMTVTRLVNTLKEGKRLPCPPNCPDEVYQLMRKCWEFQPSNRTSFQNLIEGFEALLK
# Sequence of UniProt P07333 (whole entry, looked up): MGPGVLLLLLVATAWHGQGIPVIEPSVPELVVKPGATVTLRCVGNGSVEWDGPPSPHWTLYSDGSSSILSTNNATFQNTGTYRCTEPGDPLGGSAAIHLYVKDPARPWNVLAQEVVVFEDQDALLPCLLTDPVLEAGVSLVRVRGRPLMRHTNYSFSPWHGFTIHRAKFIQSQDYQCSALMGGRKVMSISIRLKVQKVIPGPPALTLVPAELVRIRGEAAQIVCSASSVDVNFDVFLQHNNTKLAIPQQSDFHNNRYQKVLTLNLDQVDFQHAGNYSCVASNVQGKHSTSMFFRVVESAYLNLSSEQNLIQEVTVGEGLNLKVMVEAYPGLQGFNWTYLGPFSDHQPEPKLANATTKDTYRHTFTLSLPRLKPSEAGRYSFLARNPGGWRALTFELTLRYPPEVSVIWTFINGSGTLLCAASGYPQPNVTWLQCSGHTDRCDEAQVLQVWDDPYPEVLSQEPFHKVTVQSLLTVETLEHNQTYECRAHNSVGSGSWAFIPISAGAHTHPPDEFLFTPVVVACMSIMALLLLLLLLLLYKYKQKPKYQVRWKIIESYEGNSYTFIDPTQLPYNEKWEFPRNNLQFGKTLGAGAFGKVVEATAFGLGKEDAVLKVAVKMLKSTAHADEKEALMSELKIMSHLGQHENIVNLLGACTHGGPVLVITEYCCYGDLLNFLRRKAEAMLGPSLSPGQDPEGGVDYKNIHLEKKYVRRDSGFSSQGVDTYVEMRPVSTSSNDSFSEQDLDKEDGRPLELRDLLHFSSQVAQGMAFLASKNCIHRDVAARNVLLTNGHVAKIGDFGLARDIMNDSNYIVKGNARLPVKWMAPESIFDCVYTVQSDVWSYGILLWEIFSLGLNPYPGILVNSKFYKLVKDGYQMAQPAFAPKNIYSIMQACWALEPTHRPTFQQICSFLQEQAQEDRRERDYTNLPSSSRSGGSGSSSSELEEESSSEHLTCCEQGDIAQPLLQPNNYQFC
# Sequence of UniProt P42336 (whole entry, unmodified, looked up): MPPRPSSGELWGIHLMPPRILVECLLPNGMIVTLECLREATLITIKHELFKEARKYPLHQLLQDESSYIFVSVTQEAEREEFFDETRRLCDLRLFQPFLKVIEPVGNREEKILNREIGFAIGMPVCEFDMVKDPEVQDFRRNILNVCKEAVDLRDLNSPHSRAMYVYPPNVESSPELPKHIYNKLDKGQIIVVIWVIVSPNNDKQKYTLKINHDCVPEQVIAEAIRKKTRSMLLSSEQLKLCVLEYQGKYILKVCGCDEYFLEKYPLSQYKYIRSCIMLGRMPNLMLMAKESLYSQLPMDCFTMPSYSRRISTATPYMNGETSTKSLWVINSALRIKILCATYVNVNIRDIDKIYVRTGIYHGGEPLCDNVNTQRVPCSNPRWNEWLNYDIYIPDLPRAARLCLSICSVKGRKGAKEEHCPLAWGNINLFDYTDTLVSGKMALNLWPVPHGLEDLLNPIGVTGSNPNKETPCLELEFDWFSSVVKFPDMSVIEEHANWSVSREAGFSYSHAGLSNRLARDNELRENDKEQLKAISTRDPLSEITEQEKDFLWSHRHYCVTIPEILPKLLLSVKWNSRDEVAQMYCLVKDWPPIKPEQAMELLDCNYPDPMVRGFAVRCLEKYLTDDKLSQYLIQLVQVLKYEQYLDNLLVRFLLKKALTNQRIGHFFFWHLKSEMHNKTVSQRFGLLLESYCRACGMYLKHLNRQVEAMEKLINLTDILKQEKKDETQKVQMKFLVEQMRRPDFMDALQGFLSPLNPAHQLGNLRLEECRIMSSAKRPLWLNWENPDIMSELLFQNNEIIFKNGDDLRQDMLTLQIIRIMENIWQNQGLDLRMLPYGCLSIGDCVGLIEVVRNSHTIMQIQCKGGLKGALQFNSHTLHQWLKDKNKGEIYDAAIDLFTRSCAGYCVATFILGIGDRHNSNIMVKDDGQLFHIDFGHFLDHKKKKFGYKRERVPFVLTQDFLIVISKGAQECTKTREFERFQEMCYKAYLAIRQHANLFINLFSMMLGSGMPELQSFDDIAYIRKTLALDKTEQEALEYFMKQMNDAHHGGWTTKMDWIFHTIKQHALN
# Sequence of UniProt P21127 (whole entry, looked up): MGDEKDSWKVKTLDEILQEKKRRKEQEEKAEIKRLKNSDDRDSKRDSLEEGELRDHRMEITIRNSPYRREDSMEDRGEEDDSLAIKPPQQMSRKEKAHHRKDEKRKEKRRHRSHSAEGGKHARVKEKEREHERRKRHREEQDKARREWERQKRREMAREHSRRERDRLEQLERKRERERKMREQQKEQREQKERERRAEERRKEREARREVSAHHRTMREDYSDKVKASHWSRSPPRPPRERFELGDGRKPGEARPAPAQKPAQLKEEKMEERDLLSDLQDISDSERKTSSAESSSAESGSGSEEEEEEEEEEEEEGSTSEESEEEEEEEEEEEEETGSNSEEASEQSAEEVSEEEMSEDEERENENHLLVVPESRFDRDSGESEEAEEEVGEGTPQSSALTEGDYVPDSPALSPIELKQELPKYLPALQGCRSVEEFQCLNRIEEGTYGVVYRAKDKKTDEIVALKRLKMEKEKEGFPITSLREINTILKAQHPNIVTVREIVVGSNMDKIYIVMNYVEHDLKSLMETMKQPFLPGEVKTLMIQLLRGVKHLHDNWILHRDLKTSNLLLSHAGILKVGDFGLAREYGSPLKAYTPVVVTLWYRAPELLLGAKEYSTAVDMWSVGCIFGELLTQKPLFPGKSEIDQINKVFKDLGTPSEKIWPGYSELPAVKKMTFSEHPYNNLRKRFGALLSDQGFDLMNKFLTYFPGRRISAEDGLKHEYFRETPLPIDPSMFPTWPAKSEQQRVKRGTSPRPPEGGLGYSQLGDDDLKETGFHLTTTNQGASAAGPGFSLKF

# Sample 1
# Species: human
# Matrix: microsomes or S9
# Concentration: 2 µM
# Time: 0.5 h
SMILES,remaining compound
Cc1cc(C)c(C)c(S(=O)(=O)N2CCN(CCc3cn(C)nn3)CC2)c1C,3.94%
O=C(c1ccccc1)N1CC(c2nc(-c3cccnc3)no2)C2(CCOCC2)C1 (centres unmarked),66.7%
O=c1c(/C=N/Nc2nc3ccccc3s2)c(C(F)(F)F)[nH]n1-c1nc2ccccc2s1,> 99%
COc1ccc2nc(C3=CCCN(C)C3)n(C)c2c1,71.5%
C=CCOc1ccccc1C1CC(O)=Nc2c1c(C)nn2-c1ccc(O)nn1 (centres unmarked),13.5%
COC(=O)CC1C(=O)NCCN1S(=O)(=O)c1ccc(F)c(Cl)c1 (centres unmarked),59.2%
CC1(C)CC(NC(=O)CCc2nc3ncc(Br)cc3[nH]2)CC(C)(C)N1,62.9%

# Sample 2
# Organism: Sarcocystis neurona
# Read-out: parasite growth
# Concentration: 10 µM
# Time: 96 h
# Notes: first screen
# Baseline: untreated
SMILES,log2 fold change
CC(=O)[C@H]1CC[C@H]2[C@@H]3C[C@H](C)C4=CC(=O)CC[C@]4(C)[C@H]3[C@@H](O)C[C@]12C,0.29
Cc1[nH]cnc1CN1CCc2c(c3ccccc3n2C)C1=O,0.14
C[C@H]1COc2c(C3(N)CC3)c(F)cc3c(=O)c(C(=O)O)cn1c23,-0.03
CC(=O)[C@H]1CC[C@H]2[C@@H]3CCC4=CC(=O)CC[C@]4(C)[C@H]3CC[C@]12C,-0.47

# Sample 3
# Compound: Cc1cc(-n2nc(Cc3cc(F)cc(C(F)(F)F)c3)nc2C)ccc1C(N)=O
# Concentration: 1 µM
target,read-out,technique,remaining binding
"Macrophage colony-stimulating factor 1 receptor (CSF1R, Homo sapiens, UniProt P07333)",cell-free assay,competition with immobilised ligand,100%
"Tyrosine-protein kinase JAK1, JH2 (JAK1, Homo sapiens, UniProt P23458)",cell-free assay,competition with immobilised ligand,100%
"Cyclin-dependent kinase 11B (CDK11B, Homo sapiens, UniProt P21127)",cell-free assay,competition with immobilised ligand,100%
"Ribosomal protein S6 kinase alpha-5, C-terminal kinase domain (RPS6KA5, Homo sapiens, UniProt O75582)",cell-free assay,competition with immobilised ligand,97%
"Tyrosine-protein kinase ABL1, phosphorylated (ABL1, Homo sapiens, UniProt P00519, F317I)",binding,,85%
"Protein-tyrosine kinase 6 (PTK6, Homo sapiens, UniProt Q13882)",cell-free assay,competition with immobilised ligand,100%
"Cyclin-dependent kinase 7 (CDK7, Homo sapiens, UniProt P50613)",cell-free assay,competition with immobilised ligand,100%
"Beta-adrenergic receptor kinase 1 (GRK2, Homo sapiens, UniProt P25098)",cell-free assay,competition with immobilised ligand,100%
"Serine/threonine-protein kinase PAK 5 (PAK5, Homo sapiens, UniProt Q9P286)",cell-free assay,competition with immobilised ligand,100%
"Phosphatidylinositol 4,5-bisphosphate 3-kinase catalytic subunit alpha isoform (PIK3CA, Homo sapiens, UniProt P42336, E545A)",cell-free assay,competition with immobilised ligand,100%
"Membrane-associated tyrosine- and threonine-specific cdc2-inhibitory kinase (PKMYT1, Homo sapiens, UniProt Q99640)",cell-free assay,competition with immobilised ligand,88%
"Death-associated protein kinase 1 (DAPK1, Homo sapiens, UniProt P53355)",cell-free assay,competition with immobilised ligand,99%
"Cyclin-dependent kinase 5 (CDK5, Homo sapiens, UniProt Q00535)",cell-free assay,competition with immobilised ligand,100%
"Cyclin-dependent kinase 4 (CDK4, Homo sapiens, UniProt P11802)",cell-free assay,competition with immobilised ligand,100%
"Angiopoietin-1 receptor (TEK, Homo sapiens, UniProt Q02763)",cell-free assay,competition with immobilised ligand,92%
"Receptor-interacting serine/threonine-protein kinase 2 (RIPK2, Homo sapiens, UniProt O43353)",cell-free assay,competition with immobilised ligand,100%

# Sample 4
# Cell line: mouse MPNST tumor cells
# Technique: high-content nuclear imaging
# Refers to: cell number
# Concentration: 10 µM
# Time: 12 h
# Notes: mean of 2 replicates
# Baseline: plate mean
# Reading: higher = more cells
Compound,nuclei count
C[C@@H](NCCCc1cccc(C(F)(F)F)c1)c1cccc2ccccc12,-5.79 z-score and -5.93 z-score
CCCCC(F)(F)[C@@]1(O)CC[C@H]2[C@@H](CC(=O)[C@@H]2CCCCCCC(=O)O)O1,0.514 z-score
O=C(O)Cc1cccc(OCCCN(Cc2cccc(C(F)(F)F)c2Cl)CC(c2ccccc2)c2ccccc2)c1,0.685 z-score
Cc1cc(CS(=O)(=O)c2ccccc2)cc(OCc2ccc(CN3CCC[C@@H]3CO)cc2)c1,-2.07 z-score
CCCCCCCCCCC[C@@H](C[C@@H]1OC(=O)[C@H]1CCCCCC)OC(=O)[C@H](CC(C)C)NC=O,1.81 z-score

# Some of these lines once more (sample 3):
target,read-out,technique,remaining binding
"Ribosomal protein S6 kinase alpha-5, C-terminal kinase domain (RPS6KA5, Homo sapiens, UniProt O75582)",cell-free assay,competition with immobilised ligand,97%
"Serine/threonine-protein kinase PAK 5 (PAK5, Homo sapiens, UniProt Q9P286)",cell-free assay,competition with immobilised ligand,100%
"Beta-adrenergic receptor kinase 1 (GRK2, Homo sapiens, UniProt P25098)",cell-free assay,competition with immobilised ligand,100%
"Membrane-associated tyrosine- and threonine-specific cdc2-inhibitory kinase (PKMYT1, Homo sapiens, UniProt Q99640)",cell-free assay,competition with immobilised ligand,88%
